Measured values from different studies.
Each line is one published result; not all experiments were run side by side. Numbers after ± are the reported error.

CC#CC(=O)N1CCC[C@H]1c1nc(-c2ccc(C(=O)Nc3ccccn3)cc2)c2c(N)nccn12 — AUC (human, plasma; oral, 400 mg single dose): 4680 ng·h/mL
Nc1ccn([C@@H]2O[C@H](CO)[C@@H](O)C2(F)F)c(=O)n1 — AUC extrapolated (human patients, plasma; intravenous, 800 mg/m2, mean, before paricalcitol): 0.35%
C[C@@H](c1ccc2nccn2c1)n1nnc2ncc(-c3cnn(C)c3)nc21 — AUC at steady state (human, plasma; oral, 300 mg, cycle 2 day 1, multiple doses): 8070 ng·h/mL
CC(C)(C(=O)N1CCOc2c(C#N)cncc2C1)C(F)F — AUC dose proportionality ratio (healthy humans, both sexes, plasma; oral, 40 mg single dose, 2-fold dose increase; relative to: 40 mg over 20 mg): 2.15
CC(C)(C#N)c1cc(Cn2cncn2)cc(C(C)(C)C#N)c1 — AUC at steady state (human; 150 mg): 944 ng·h/mL
C=CC(=O)Nc1cc(Nc2nccc(-c3cn(C)c4ccccc34)n2)c(OC)cc1N(C)CCN(C)C — AUC at steady state (human patients, plasma; dose not given, Q2 exposure quartile, with chemotherapy): 8.95 to 11.6 µM·h
N#Cc1ccc(C(c2ccc(C#N)cc2)n2cncn2)cc1 — AUC at steady state (human; 125 mg): 3160 ng·h/mL
CN1CCC(COc2cnc(-c3cccc(Cn4nc(-c5cccc(C#N)c5)ccc4=O)c3)nc2)CC1 — AUC increase (human; dose not given, worst case, biliary clearance P-gp dependent, added: maximal P-gp inhibition): 43%
N#Cc1ccc(C(c2ccc(C#N)cc2)n2cncn2)cc1 — AUC at steady state per dose (human patients, plasma; oral, 2.5 mg daily): 2.52 ± 0.34 µg·h/mL/mg
C=CC(=O)N1CCC[C@@H](n2c(=O)n(-c3ccc(Oc4ccccc4)cc3)c3c(N)nccc32)C1 — AUC fed/fasted ratio (human; oral, 120 mg; relative to: fed over fasted): 1.54
CN(C(=O)C(C)(C)c1cc(C(F)(F)F)cc(C(F)(F)F)c1)c1cnc(N2C[C@H]3COCCN3C[C@H]2CO)cc1-c1ccc(F)cc1[14CH3] — AUC extrapolated (human, plasma; oral, 120 mg): 1.11%
O=C(COc1ccc(Cl)cc1)NC12CC(c3nnc([C@H]4C[C@@H](OC(F)(F)F)C4)o3)(C1)C2 — AUC (healthy human volunteers fasted, plasma; oral, 400 mg single dose, arithmetic mean): 356 µM·h
COc1ccc2[nH]c([S@+]([O-])Cc3ncc(C)c(OC)c3C)nc2c1 — AUC fold decrease (human male, dried plasma spots; dose not given, mean of (R)- and (S)-enantiomers, added: rifampicin pretreatment; relative to: control over induction): 10.7 fold
N#Cc1cc(NC(=O)[C@H]2c3ccccc3C(=O)N(CC(F)(F)F)[C@@H]2c2cccnc2)ccc1F — AUC (human, plasma; oral, 1200 mg, median): 27500 ng·h/mL
COC(=O)N[C@H](C(=O)N1CCC[C@H]1c1ncc(-c2cc(F)c3c(c2)O[C@@H](c2cnc(C4CC4)s2)n2c-3cc3cc(-c4cnc([C@@H]5CCCN5C(=O)[C@@H](NC(=O)OC)C(C)C)[nH]4)ccc32)[nH]1)C(C)C — AUC increase (healthy adult humans; oral, dose not given; relative to: low-fat meal over fasted): ~25%
COc1ccc2nc([S@@+]([O-])Cc3ncc(CO)c(OC)c3C)[nH]c2c1 — AUC fold change (human, dried plasma spots; dose not given, mean, added: fluvoxamine and voriconazole; relative to: inhibition over control): 2.51 fold
Cc1cc(-c2nccc3c2ccn3CC(=O)Nc2ccc(-c3cnccn3)cn2)ccn1 — AUC (human, plasma; oral, 20 mg single dose, geometric mean): 1.55 µM·h
CC1(C)CC[C@]2(NC(=O)C(C)(F)F)CC[C@]3(C)[C@H](C(=O)C=C4[C@@]5(C)C=C(C#N)C(=O)C(C)(C)[C@@H]5CC[C@]43C)[C@@H]2C1 — AUC extrapolated percentage (human, plasma; oral, 150 mg, administered alone): 3.2%
NC1(C(=O)N[C@@H](CCO)c2ccc(Cl)cc2)CCN(c2nc[nH]c3nccc2-3)CC1 — AUC ratio (human, plasma; concentration not given, added: with or without enzalutamide; relative to: cycle 2 over cycle 0): 0.601

Some of these lines once more:
CN1CCC(COc2cnc(-c3cccc(Cn4nc(-c5cccc(C#N)c5)ccc4=O)c3)nc2)CC1 — AUC increase (human; dose not given, worst case, biliary clearance P-gp dependent, added: maximal P-gp inhibition): 43%
N#Cc1ccc(C(c2ccc(C#N)cc2)n2cncn2)cc1 — AUC at steady state per dose (human patients, plasma; oral, 2.5 mg daily): 2.52 ± 0.34 µg·h/mL/mg
C=CC(=O)N1CCC[C@@H](n2c(=O)n(-c3ccc(Oc4ccccc4)cc3)c3c(N)nccc32)C1 — AUC fed/fasted ratio (human; oral, 120 mg; relative to: fed over fasted): 1.54
